# Published values of several laboratories.
# Parts stem from different laboratories: compare values within a part only.

# Series 1
# Target: Phosphate system positive regulatory protein PHO4, full length, GST-tagged (PHO4, Saccharomyces cerevisiae, UniProt P07270, residues 1-312)
# Technique: competition protein-binding microarray
# Form: double-stranded DNA, one strand shown
# Sample: in vitro
# Tested at: 2 µM
# Notes: whole 60-bp probe, lowest competitor level
# Added: Cbf1 competitor, 0.05 µM
# Direction: higher = stronger binding
# Construct (chain): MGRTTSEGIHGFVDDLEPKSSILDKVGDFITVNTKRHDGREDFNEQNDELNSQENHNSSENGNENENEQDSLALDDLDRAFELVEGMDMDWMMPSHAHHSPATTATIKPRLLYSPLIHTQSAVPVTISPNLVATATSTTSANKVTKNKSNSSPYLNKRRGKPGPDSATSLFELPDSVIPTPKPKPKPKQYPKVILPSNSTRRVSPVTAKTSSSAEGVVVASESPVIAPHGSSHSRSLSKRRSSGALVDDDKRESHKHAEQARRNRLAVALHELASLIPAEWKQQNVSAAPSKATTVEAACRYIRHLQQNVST
Strand,fluorescence intensity
CGTCCTAGTGATTGGCTGGTGGGTGCCATGAGGAAGGTCTTGATTCGCTTGACGCTGCTG,6760 a.u.
CCTTTGAAGTATTTTCTCGTGGAAGCAGCCTCGTAAGTCTTGATTCGCTTGACGCTGCTG,4970 a.u.
AAAGCGGTAATTTGTAAGGTGGGTGCAGATATCTATGTCTTGATTCGCTTGACGCTGCTG,4090 a.u.
CTAACGAAGGTTTGTCACTTAACTTACAAGCCAAGTGTCTTGATTCGCTTGACGCTGCTG,3150 a.u.

# Series 2
# Target: Interferon regulatory factor 5, full length, phosphomimetic (IRF5, Homo sapiens, UniProt Q13568-2, residues 1-514, K96S/S451D/S453D/S456D/S462D)
# Technique: protein-binding microarray
# Form: double-stranded DNA, one strand shown
# Sample: in vitro
# Tested at: 250 nM
# Notes: 60-bp whole probe
# Added: salmon DNA 0.4 mg/ml
# Relative to: random background probes
# Direction: higher = stronger binding
Strand,log fluorescence [z-score]
GCCTAGCACTCCACTTGTCTTTTCATTTTGTGCTAGGTCTTGATTCGCTTGACGCTGCTG,1.57
GCCTAGCACGACGGTTTCGACACTGGGGAGGTGCTAGTCTTGATTCGCTTGACGCTGCTG,4.64
GCCTAGCACGTCGAACTGAGTTTCGAGACGTGCTAGGTCTTGATTCGCTTGACGCTGCTG,5.3
GCCTAGCACTTAGATTTCAGTCTCAATTAGTGCTAGGTCTTGATTCGCTTGACGCTGCTG,2.08

# Series 3
# Target: PABPC1L2, full length, GST fusion (mouse, UniProt A0ABA7IW68)
# Technique: RNAcompete
# Form: RNA
# Sample: in vitro
# Tested at: 20 nM
# Notes: 7-mer, probes averaged, single round
# Relative to: mean of 7-mers
# Direction: higher = stronger binding
# Construct (chain): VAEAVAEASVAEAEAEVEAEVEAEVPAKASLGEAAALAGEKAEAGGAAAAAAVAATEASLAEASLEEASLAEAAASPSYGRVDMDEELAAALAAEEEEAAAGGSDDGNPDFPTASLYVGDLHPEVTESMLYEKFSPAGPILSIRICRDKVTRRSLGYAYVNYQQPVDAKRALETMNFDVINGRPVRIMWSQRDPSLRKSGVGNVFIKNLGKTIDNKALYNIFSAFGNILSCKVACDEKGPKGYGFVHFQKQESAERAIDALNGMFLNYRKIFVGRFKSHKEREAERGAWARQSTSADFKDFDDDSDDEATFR
Strand,7-mer Z-score
UUGAAUG,-0.202
UCCAUCC,-0.51
GUGUGGC,-0.0826
UUAGAGU,-0.0645

# Mixed results
Substance,target,assay,test system,conditions,how to read,measurement,result
"PhoQ, residues 284 288 289 292 302 303 TYGVAM","PhoP, residues 12 14 15 18 19 VHSCL (Escherichia coli, UniProt P23836)","Sort-seq, item: YFP reporter",E. coli,"PhoQ-PhoP variant library, added: 10 µM Mg2+","relative to: high Mg2+ state, higher = stronger signaling",fold induction,9.3

# Repeated from above (series 3):
Strand,7-mer Z-score
UUGAAUG,-0.202
